Results from different studies.
Compare with care: the assays were run in different laboratories. ± gives the spread as reported.
NTSR1: Neurotensin receptor type 1 (NTSR1, Homo sapiens, UniProt P30989)
Chain of UniProt P30989 (whole entry, looked up): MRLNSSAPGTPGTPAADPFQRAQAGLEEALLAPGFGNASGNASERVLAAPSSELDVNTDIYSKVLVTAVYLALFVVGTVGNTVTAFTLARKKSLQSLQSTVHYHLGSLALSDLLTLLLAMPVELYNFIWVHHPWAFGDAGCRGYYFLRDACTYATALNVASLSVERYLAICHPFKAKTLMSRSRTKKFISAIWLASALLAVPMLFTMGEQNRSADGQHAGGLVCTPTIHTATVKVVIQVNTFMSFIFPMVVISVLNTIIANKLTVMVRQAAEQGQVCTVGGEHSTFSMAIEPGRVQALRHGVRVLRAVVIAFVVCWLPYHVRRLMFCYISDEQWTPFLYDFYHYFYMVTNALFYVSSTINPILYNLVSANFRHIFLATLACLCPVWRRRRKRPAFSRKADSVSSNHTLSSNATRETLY
C3ar1: C3a anaphylatoxin chemotactic receptor (C3ar1, Mus musculus, UniProt O09047)
Chain of UniProt O09047 (whole entry, looked up): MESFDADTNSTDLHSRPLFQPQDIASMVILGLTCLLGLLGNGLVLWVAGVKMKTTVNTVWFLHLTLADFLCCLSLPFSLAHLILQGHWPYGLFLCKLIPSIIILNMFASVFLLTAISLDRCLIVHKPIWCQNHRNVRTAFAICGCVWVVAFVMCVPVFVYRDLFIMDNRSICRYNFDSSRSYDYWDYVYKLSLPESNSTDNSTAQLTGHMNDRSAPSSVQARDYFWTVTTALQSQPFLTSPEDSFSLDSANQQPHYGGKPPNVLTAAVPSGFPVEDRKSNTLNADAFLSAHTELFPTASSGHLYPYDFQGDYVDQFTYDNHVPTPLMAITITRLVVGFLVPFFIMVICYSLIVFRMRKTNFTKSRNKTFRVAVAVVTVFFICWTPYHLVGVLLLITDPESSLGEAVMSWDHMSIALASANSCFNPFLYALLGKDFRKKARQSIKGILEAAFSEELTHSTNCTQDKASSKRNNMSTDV
CHRM5: Muscarinic acetylcholine receptor M5 (CHRM5, Homo sapiens, UniProt P08912)
Chain of UniProt P08912 (whole entry, looked up): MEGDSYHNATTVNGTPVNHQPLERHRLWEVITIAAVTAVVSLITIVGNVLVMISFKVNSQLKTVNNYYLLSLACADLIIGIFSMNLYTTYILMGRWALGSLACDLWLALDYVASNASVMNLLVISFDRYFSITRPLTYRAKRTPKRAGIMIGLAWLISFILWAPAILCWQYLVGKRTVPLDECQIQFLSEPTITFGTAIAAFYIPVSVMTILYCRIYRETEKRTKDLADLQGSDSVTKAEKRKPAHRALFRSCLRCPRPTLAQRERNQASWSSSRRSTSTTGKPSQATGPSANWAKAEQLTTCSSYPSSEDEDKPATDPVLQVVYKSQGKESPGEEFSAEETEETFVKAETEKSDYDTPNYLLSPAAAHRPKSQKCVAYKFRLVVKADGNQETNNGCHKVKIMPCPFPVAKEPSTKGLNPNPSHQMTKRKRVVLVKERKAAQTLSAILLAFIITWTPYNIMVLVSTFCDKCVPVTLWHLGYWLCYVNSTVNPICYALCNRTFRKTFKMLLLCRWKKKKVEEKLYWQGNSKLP
CHRM3: Muscarinic acetylcholine receptor M3 (CHRM3, Homo sapiens, UniProt P20309)
Chain of UniProt P20309 (whole entry, looked up): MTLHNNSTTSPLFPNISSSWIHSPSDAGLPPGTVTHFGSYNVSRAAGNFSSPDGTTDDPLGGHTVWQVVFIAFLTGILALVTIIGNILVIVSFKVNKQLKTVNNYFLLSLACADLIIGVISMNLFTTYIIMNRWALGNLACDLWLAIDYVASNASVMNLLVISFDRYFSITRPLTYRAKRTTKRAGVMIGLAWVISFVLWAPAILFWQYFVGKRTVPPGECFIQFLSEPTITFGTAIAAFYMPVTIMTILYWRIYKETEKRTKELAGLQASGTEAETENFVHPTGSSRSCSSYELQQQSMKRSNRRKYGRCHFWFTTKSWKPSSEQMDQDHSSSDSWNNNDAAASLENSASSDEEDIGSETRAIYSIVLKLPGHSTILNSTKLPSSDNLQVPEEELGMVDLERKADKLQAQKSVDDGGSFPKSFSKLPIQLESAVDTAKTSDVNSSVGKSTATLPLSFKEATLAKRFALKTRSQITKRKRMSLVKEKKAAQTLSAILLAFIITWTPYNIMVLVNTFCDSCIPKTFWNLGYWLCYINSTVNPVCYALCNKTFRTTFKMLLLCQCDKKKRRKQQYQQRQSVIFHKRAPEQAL
Chain of UniProt Q9NSD7 (whole entry, unmodified, looked up): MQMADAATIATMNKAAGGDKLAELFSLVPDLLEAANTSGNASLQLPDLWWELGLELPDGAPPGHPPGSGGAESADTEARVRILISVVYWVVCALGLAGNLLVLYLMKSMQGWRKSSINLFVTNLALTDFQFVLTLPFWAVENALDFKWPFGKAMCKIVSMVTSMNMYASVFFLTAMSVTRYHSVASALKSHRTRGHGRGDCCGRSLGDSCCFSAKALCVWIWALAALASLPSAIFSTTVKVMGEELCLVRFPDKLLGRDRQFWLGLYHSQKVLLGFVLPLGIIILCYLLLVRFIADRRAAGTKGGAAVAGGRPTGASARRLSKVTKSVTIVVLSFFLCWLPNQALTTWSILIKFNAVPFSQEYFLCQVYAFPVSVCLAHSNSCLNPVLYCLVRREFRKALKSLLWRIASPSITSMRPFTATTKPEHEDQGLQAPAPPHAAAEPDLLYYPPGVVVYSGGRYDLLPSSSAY
Chain of UniProt Q0P543 (whole entry, looked up): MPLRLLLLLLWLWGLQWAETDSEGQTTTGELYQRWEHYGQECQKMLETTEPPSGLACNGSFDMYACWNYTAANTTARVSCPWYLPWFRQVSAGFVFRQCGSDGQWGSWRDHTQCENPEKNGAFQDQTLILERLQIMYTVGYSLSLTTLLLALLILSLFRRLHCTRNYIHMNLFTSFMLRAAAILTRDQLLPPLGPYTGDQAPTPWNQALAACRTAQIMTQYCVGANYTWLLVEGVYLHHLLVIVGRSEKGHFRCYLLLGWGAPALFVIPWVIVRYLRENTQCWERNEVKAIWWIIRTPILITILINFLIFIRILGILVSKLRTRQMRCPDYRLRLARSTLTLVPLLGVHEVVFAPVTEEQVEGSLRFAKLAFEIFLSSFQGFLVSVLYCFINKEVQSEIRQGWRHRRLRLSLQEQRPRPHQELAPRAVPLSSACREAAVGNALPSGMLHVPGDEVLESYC
Chain of UniProt Q9UKP6 (whole entry, looked up): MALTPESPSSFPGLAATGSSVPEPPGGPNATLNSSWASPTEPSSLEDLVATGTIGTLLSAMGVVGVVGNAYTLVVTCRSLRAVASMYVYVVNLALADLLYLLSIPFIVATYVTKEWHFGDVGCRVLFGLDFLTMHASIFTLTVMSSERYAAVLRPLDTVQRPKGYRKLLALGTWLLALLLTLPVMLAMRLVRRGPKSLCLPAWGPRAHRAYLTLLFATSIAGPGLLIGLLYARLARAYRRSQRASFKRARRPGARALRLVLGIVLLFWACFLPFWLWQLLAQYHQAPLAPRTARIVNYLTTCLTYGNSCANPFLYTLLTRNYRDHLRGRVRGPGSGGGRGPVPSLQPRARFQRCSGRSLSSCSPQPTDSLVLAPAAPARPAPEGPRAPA
Chain of UniProt Q969F8 (whole entry, unmodified, looked up): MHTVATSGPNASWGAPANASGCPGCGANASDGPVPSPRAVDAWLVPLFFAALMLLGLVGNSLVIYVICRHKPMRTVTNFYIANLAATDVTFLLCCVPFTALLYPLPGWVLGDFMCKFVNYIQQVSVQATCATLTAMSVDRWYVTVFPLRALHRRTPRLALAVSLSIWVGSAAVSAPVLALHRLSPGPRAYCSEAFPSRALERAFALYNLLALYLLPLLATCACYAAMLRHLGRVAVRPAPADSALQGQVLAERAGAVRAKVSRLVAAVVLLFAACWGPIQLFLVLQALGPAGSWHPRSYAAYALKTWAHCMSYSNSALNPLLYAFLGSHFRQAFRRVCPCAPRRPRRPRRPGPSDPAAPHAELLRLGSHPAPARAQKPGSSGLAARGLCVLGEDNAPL
Chain of UniProt P24530 (whole entry, looked up): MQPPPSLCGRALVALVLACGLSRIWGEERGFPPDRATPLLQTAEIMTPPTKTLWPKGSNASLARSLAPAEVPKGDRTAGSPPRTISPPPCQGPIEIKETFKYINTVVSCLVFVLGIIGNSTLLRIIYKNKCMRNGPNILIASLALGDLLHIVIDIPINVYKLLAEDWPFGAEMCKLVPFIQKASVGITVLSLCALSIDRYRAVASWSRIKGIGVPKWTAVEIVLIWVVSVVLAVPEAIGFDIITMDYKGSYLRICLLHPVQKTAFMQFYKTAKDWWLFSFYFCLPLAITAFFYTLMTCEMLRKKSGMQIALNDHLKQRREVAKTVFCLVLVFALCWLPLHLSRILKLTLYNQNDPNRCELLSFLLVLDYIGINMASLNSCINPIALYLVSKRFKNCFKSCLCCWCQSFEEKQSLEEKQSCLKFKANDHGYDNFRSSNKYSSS

| Compound | target | test | system | setting | how to read | Emax |
| --- | --- | --- | --- | --- | --- | --- |
| COc1cc2nc(C3CC3)nc(N3CCC(c4ccccc4OC)CC3)c2cc1OC | NTSR1 | β-arrestin recruitment, agonist | HEK-293T |  |  | 70.8% |
| CC(C)[C@H](NC(=O)[C@@H]1CSSC(C)(C)[C@H](NC(=O)[C@@H](N)CC(=O)O)C(=O)N[C@@H](Cc2ccccc2)C(=O)N[C@H](Cc2c[nH]c3ccccc23)C(=O)N[C@@H](CCCN)C(=O)N[C@@H](Cc2ccc(O)cc2)C(=O)N1)C(=O)O | Urotensin-2 receptor (UTS2R, Homo sapiens, UniProt Q9UKP6) | β-arrestin recruitment, agonist, BRET | HEK293 |  |  | 22.2% |
| COc1ccccc1C1CCN(c2nc(C3(C(F)(F)F)CC3)nc3ccc(N(C)CCO)cc23)CC1 | NTSR1 | β-arrestin recruitment, agonist | HEK-293T |  |  | 113% |
| Cc1cc(C(c2ccc(Cl)cc2)c2ccc(Cl)cc2)sc1C(=O)N[C@@H](CCCN=C(N)N)C(=O)O | C3ar1 | GoA dissociation, agonist, NanoBiT G-protein |  |  |  | 55.6 ± 0.61% |
| CCCCOc1ccc(C(=O)OCCN2CC=CCC2)cc1 | CHRM5 |  | membranes | 100 µM, 15 h, together with: carbachol | baseline: control | 1.69 ± 0.07 fold |
| C=CCn1c(=O)c2ccccc2n2c(SCC(=O)NC3CC3)nnc12 | CHRM5 | receptor activation, agonist |  | concentration not given, 16 h |  | 114 ± 10% |
| CCCCCCOc1ccc(C(=O)OCCN2CC=CCC2)cc1 | CHRM3 |  | membranes | 100 µM, 15 h, together with: carbachol | baseline: control | 1.27 ± 0.05 fold |
| C=CCn1c(=O)c2ccccc2n2c(SC(C(=O)OCC)c3ccccc3)nnc12 (stereo not drawn) | CHRM5 | receptor activation, agonist |  | concentration not given, 16 h |  | 133 ± 6% |
| CCCC[C@H](NC(=O)[C@H](CC(C)C)NC(=O)[C@H](CO)NC(=O)[C@H](CO)NC(=O)[C@H](C)NC(=O)[C@H](CO)NC(=O)[C@H](C)N)C(=O)N[C@@H](CC(=O)O)C(=O)N[C@@H](CCCCN)C(=O)N[C@@H](CCC(=O)O)C(=O)N[C@@H](C)C(=O)N[C@H](C(=O)N[C@@H](Cc1ccc(O)cc1)C(=O)N[C@@H](Cc1ccccc1)C(=O)N[C@@H](C)C(=O)N[C@@H](Cc1c[nH]cn1)C(=O)N[C@@H](CC(C)C)C(=O)N[C@@H](CC(=O)O)C(=O)N[C@H](C(=O)N[C@H](C(=O)N[C@@H](Cc1c[nH]c2ccccc12)C(=O)O)[C@@H](C)CC)[C@@H](C)CC)C(C)C | Endothelin receptor type B (EDNRB, Homo sapiens, UniProt P24530) | agonist | HEK293 | ETBR/ETAR ratio 1:2 |  | 49 ± 6% |
| CNC(=N)NCCC[C@H](NC(=O)[C@H](CC(C)C)NC(=O)NNC(=O)[C@H](Cc1ccccc1)NC(=O)[C@@H](NC(=O)[C@H](CC(N)=O)NC(=O)[C@@H]1C[C@@H](O)CN1C(=O)[C@@H](Cc1ccc(O)cc1)NC(C)=O)[C@@H](C)O)C(=O)N[C@@H](Cc1c[nH]c2ccccc12)C(N)=O | KiSS-1 receptor (KISS1R, Homo sapiens, UniProt Q969F8, H309A) | inositol phosphate, agonist | HEK293 |  |  | 98.6% |
| CC[C@H](C)[C@@H]1NC(=O)[C@H](Cc2ccccc2)NC(=O)[C@H](CCC(=O)O)NC(=O)[C@H](CCCNC(=N)N)NC(=O)CNC(=O)[C@@H](NC(=O)[C@H](CC(C)C)NC(=O)[C@H](CCCNC(=N)N)NC(=O)[C@@H](NC(=O)CNC(=O)[C@H](Cc2ccc(O)cc2)NC(=O)[C@@H]2CCCN2C(=O)[C@H](C)NC(=O)[C@H](C)NC(=O)[C@@H](N)CCCNC(=N)N)C(C)C)CSSC[C@@H]2NC(=O)[C@@H](NC(=O)[C@H](CO)NC(=O)[C@H](CO)NC(=O)[C@H](CO)NC(=O)[C@H](CC(C)C)NC(=O)CNC(=O)[C@H](C)NC(=O)[C@H](CC(C)C)NC(=O)[C@@H](NC(=O)[C@@H](N)CC(=O)O)C(C)C)CSSC[C@H](NC(=O)CNC(=O)[C@H](Cc3c[nH]c4ccccc34)NC(=O)[C@H](CCCCN)NC2=O)C(=O)N[C@@H](CO)C(=O)N[C@@H](CCCCN)C(=O)N[C@@H](CO)C(=O)N[C@@H](CCC(=O)O)C(=O)N[C@@H]([C@@H](C)CC)C(=O)N[C@@H](CO)C(=O)N[C@@H](CO)C(=O)N[C@@H](CC(C)C)C(=O)N[C@H](C(=O)O)CSSC[C@@H](C(=O)NCC(=O)NCC(=O)N[C@@H](CO)C(=O)N[C@@H](CCCNC(=N)N)C(=O)N[C@@H](Cc2c[nH]c3ccccc23)C(=O)O)NC(=O)[C@H]([C@@H](C)O)NC(=O)[C@H](Cc2ccccc2)NC(=O)[C@H]([C@@H](C)CC)NC(=O)[C@H](C(C)C)NC(=O)[C@H](C)NC(=O)[C@H](CCCNC(=N)N)NC1=O | Relaxin-3 receptor 1 (RXFP3, Homo sapiens, UniProt Q9NSD7, H268A) |  | HEK-293T |  | baseline: wild type | 66.7 ± 3.79% |
| CCCCOc1ccc(C(=O)OCC[N+]2(C)CC=CCC2)cc1 (stereo not drawn) | CHRM3 |  | membranes | 10 µM, 15 h, together with: carbachol | baseline: control | 1.26 ± 0.06 fold |
| COc1ccccc1C1CCN(c2nc(C3(F)CC3)nc3c(Cl)cc(N(C)CCO)cc23)CC1 | NTSR1 | β-arrestin recruitment, agonist | HEK-293T |  |  | 93.8% |
| CCCCCCOc1ccc(C(=O)OCC[N+]2(C)CC=CCC2)cc1 (stereo not drawn) | CHRM3 |  | membranes | 10 µM, 15 h, together with: carbachol | baseline: control | 1.29 ± 0.06 fold |
| CC[C@H](C)[C@H](NC(=O)[C@H](CO)NC(=O)[C@H](Cc1ccc(O)cc1)NC(=O)[C@H](CC(=O)O)NC(=O)[C@H](CO)NC(=O)[C@@H](NC(=O)[C@H](Cc1ccccc1)NC(=O)[C@@H](NC(=O)CNC(=O)[C@H](CCC(=O)O)NC(=O)[C@H](C)NC(=O)[C@@H](N)Cc1ccc(O)cc1)[C@@H](C)O)[C@@H](C)CC)C(=O)N[C@@H](C)C(=O)N[C@@H](CCSC)C(=O)N[C@@H](CC(=O)O)C(=O)N[C@@H](CCCCN)C(=O)N[C@H](C(=O)N[C@@H](Cc1c[nH]cn1)C(=O)N[C@@H](CCC(N)=O)C(=O)N[C@@H](CCC(N)=O)C(=O)N[C@@H](CC(=O)O)C(=O)N[C@@H](Cc1ccccc1)C(=O)N[C@H](C(=O)N[C@@H](CC(N)=O)C(=O)N[C@@H](Cc1c[nH]c2ccccc12)C(=O)N[C@@H](CC(C)C)C(=O)N[C@@H](CC(C)C)C(=O)N[C@@H](C)C(=O)N[C@@H](CCC(N)=O)C(=O)N[C@@H](CCCCN)C(=O)NCC(=O)N[C@@H](CCCCN)C(=O)N[C@@H](CCCCN)C(=O)N[C@@H](CC(N)=O)C(=O)N[C@@H](CC(=O)O)C(=O)N[C@@H](Cc1c[nH]c2ccccc12)C(=O)N[C@@H](CCCCN)C(=O)N[C@@H](Cc1c[nH]cn1)C(=O)N[C@@H](CC(N)=O)C(=O)N[C@H](C(=O)N[C@H](C(=O)N[C@@H](CCC(N)=O)C(N)=O)[C@@H](C)O)[C@@H](C)CC)C(C)C)[C@@H](C)CC | Gastric inhibitory polypeptide receptor (Mus musculus, UniProt Q0P543) | cAMP, agonist | HEK293 |  |  | 99% |
| CC(C)C[C@H](NC(=O)[C@H](C)NC(=O)[C@H](CO)NC(=O)[C@@H]1CCCN1C(=O)[C@@H]1CCCN1C(=O)[C@H](CCC(N)=O)NC(=O)[C@H](CC(C)C)NC(=O)[C@@H](N)[C@@H](C)O)C(=O)N[C@@H](CCCNC(=N)N)C(=O)N[C@@H](CCCNC(=N)N)C(=O)N[C@@H](CCCNC(=N)N)C(=O)N[C@@H](Cc1c[nH]cn1)C(=O)N[C@@H](Cc1ccc(O)cc1)C(=O)N[C@@H](Cc1c[nH]cn1)C(=O)N[C@@H](Cc1c[nH]cn1)C(=O)N[C@@H](C)C(=O)N[C@@H](CC(C)C)C(=O)N1CCC[C@H]1C(=O)N1CCC[C@H]1C(=O)N[C@@H](CO)C(=O)N[C@@H](CCCNC(=N)N)C(=O)O | C3ar1 | GoA protein dissociation, agonist, NanoBiT |  |  | baseline: TLQP-21 | 37 ± 1.18% |
| CCCN(C)c1ccc2nc(C3CC3)nc(N3CCC(c4ccccc4OC)CC3)c2c1 | NTSR1 | β-arrestin recruitment, agonist | HEK-293T |  |  | 137% |
| CCc1cc(O)cc2c(/C=N/NC(=N)NCCc3ccc(Cl)cc3)c[nH]c12 | Relaxin-3 receptor 1 (RXFP3, Homo sapiens, UniProt Q9NSD7, S159L/S163V) |  | HEK-293T |  | baseline: wild type | 106 ± 7.67% |

A few entries again:
| Compound | target | test | system | setting | how to read | Emax |
| --- | --- | --- | --- | --- | --- | --- |
| CCCCCCOc1ccc(C(=O)OCC[N+]2(C)CC=CCC2)cc1 (stereo not drawn) | CHRM3 |  | membranes | 10 µM, 15 h, together with: carbachol | baseline: control | 1.29 ± 0.06 fold |
| CC[C@H](C)[C@H](NC(=O)[C@H](CO)NC(=O)[C@H](Cc1ccc(O)cc1)NC(=O)[C@H](CC(=O)O)NC(=O)[C@H](CO)NC(=O)[C@@H](NC(=O)[C@H](Cc1ccccc1)NC(=O)[C@@H](NC(=O)CNC(=O)[C@H](CCC(=O)O)NC(=O)[C@H](C)NC(=O)[C@@H](N)Cc1ccc(O)cc1)[C@@H](C)O)[C@@H](C)CC)C(=O)N[C@@H](C)C(=O)N[C@@H](CCSC)C(=O)N[C@@H](CC(=O)O)C(=O)N[C@@H](CCCCN)C(=O)N[C@H](C(=O)N[C@@H](Cc1c[nH]cn1)C(=O)N[C@@H](CCC(N)=O)C(=O)N[C@@H](CCC(N)=O)C(=O)N[C@@H](CC(=O)O)C(=O)N[C@@H](Cc1ccccc1)C(=O)N[C@H](C(=O)N[C@@H](CC(N)=O)C(=O)N[C@@H](Cc1c[nH]c2ccccc12)C(=O)N[C@@H](CC(C)C)C(=O)N[C@@H](CC(C)C)C(=O)N[C@@H](C)C(=O)N[C@@H](CCC(N)=O)C(=O)N[C@@H](CCCCN)C(=O)NCC(=O)N[C@@H](CCCCN)C(=O)N[C@@H](CCCCN)C(=O)N[C@@H](CC(N)=O)C(=O)N[C@@H](CC(=O)O)C(=O)N[C@@H](Cc1c[nH]c2ccccc12)C(=O)N[C@@H](CCCCN)C(=O)N[C@@H](Cc1c[nH]cn1)C(=O)N[C@@H](CC(N)=O)C(=O)N[C@H](C(=O)N[C@H](C(=O)N[C@@H](CCC(N)=O)C(N)=O)[C@@H](C)O)[C@@H](C)CC)C(C)C)[C@@H](C)CC | Gastric inhibitory polypeptide receptor (Mus musculus, UniProt Q0P543) | cAMP, agonist | HEK293 |  |  | 99% |
